Results from different studies.
Lines come from different studies, so protocols differ. ± marks the error that the study gave.

COC1OC(C)C(OC2OC(C)C(OS(=O)(=O)O)C(OC3OC(C)C(OC4OC(C)C(OS(=O)(=O)O)C(OC5OC(C)C(OC6OC(C)C(OS(=O)(=O)O)C(OC7OC(C)C(OC8OC(C)C(OS(=O)(=O)O)C(OC9OC(C)C(OS(=O)(=O)O)C(OS(=O)(=O)O)C9O)C8O)C(OS(=O)(=O)O)C7O)C6O)C(OS(=O)(=O)O)C5O)C4O)C(OS(=O)(=O)O)C3O)C2O)C(OS(=O)(=O)O)C1O (stereo not shown)  prothrombin time (human plasma; 128 µg/mL): 15.1 ± 0.5 s
C[n+]1ccc(/C=N/NC(=O)c2cccc(C(=O)N/N=C/c3cc[n+](C)c4ccccc34)n2)c2ccccc21  ΔTm (MYC parallel G4 DNA; FRET melting; 1 µM, DNA 0.2 µM, with: duplex DNA competitor 10 µM): 13.7 ± 0.5 °C
CCCC(=O)N1CCN(c2ccc(NC(=O)c3ccc([N+](=O)[O-])o3)cc2Cl)CC1  EC50 (Mus musculus; gene silencing, high-content imaging; LDR reporter GFP cells; retest, mean of two runs): 2.51 µM
CN1CCCNC(=O)c2cccc(c2)C(=O)NCCCN(C)CCCNc2cccc3c2C(=O)c2cccc(c2C3=O)NCCC1  log2 fold change (SAS; RNA-Seq, item: LMNTD2 mRNA; 1 µM, 6 h; relative to: untreated cells): 2
C[n+]1cccc2cc(/C=N/NC(=O)c3cncc(C(=O)N/N=C/c4ccc5c(ccc[n+]5C)c4)n3)ccc21  ΔTm (MYC parallel G4 DNA; FRET melting; 1 µM, DNA 0.2 µM): 9 ± 0.3 °C
CCc1nnc(NC(=O)c2cccc(C(=O)Nc3nnc(CC)s3)n2)s1  AC50 (Mus musculus; gene silencing, high-content imaging; LDR reporter GFP cells; retest run 1): 10 µM
C[n+]1cc(/C=N/NC(=O)c2ccc3ccc(C(=O)N/N=C/c4cc5ccccc5[n+](C)c4)nc3n2)cc2ccccc21  ΔTm (hp2 hairpin duplex DNA; FRET melting; 1 µM): 1.3 ± 0.2 °C
C=CC(=O)Nc1cccc(Cn2ncc3cnc(Nc4cnn(CCOC)c4)nc32)c1  binding (human LZK; KINOMEscan; 100 nM): 100%
C=CC(=O)N1[C@@H](c2ccc3c(c2)OCO3)c2[nH]c3ccccc3c2C[C@H]1C(=O)N1CCN(C)CC1  relative co-enrichment (human cyclin E1 wild type-3xFLAG:CDK2; co-IP with TMT proteomics, item: TK1; concentration not given, P04183; relative to: wild type DMSO): 101%
Nc1ncc(-c2cc(-c3cnn(CC(F)(F)F)c3)ncc2F)nc1C(=O)NC1CNCC(F)C1 (stereo not shown)  remaining binding (CDC2L5; KINOMEscan; 1 µM; relative to: DMSO control): 100%
COC1CN([C@H]2CC[C@H]([C@@]3(C)Oc4c(Cl)cc(C(=O)NCc5c(SC)cc(C)[nH]c5=O)c(C)c4O3)CC2)C1  log2 fold change (RNA-seq, item: GPCPD1 mouse homolog; mouse, HT-1376 xenograft, whole blood; dose not given; relative to: vehicle): 0.436
Cc1ncsc1-c1ccc(C(C)NC(=O)C2CC(O)CN2C(=O)C(NC(=O)CCCCCCCCCCN2CCCC(Nc3ncc(Cl)c(Nc4ccccc4S(=O)(=O)C(C)C)n3)C2)C(C)(C)C)cc1 (stereo not shown)  log2 fold change (22Rv1; RNA-seq, item: TJP3 mRNA; concentration not given; relative to: DMSO): -1.06
C[n+]1cc(/C=N/NC(=O)C(=O)N/N=C/c2cc3ccccc3[n+](C)c2)cc2ccccc21  ΔTm (MYC parallel G4 DNA; FRET melting; 1 µM, DNA 0.2 µM): 3.3 ± 0.7 °C
CNS(=O)(=O)Nc1nccc(Cc2c(C)c3ccc(Oc4ncccc4F)cc3oc2=O)c1F  IC50 (HCC1428; cell viability; 7 days): > 1 µM
C[n+]1ccc(/C=N/NC(=O)c2cncc(C(=O)N/N=C/c3cc[n+](C)c4ccccc34)n2)c2ccccc21  ΔTm (MYC parallel G4 DNA; FRET melting; 1 µM, DNA 0.2 µM): 11.2 ± 0.2 °C
COc1nc(Nc2nc(O)c3ccccc3n2)nc2ccc(C)cc12  Emax (Mus musculus; gene silencing, high-content imaging; LDR reporter GFP cells; 30 h, retest, mean of two runs): 45%

Repeated from above:
C=CC(=O)Nc1cccc(Cn2ncc3cnc(Nc4cnn(CCOC)c4)nc32)c1  binding (human LZK; KINOMEscan; 100 nM): 100%
